Measured values collected from several papers.
Each line is one published result; not all experiments were run side by side. “And” joins repeats or separate records; there may be more than shown. Numbers after ± are the reported error.
UniProt Q9Y2K6, sequence (whole entry, looked up): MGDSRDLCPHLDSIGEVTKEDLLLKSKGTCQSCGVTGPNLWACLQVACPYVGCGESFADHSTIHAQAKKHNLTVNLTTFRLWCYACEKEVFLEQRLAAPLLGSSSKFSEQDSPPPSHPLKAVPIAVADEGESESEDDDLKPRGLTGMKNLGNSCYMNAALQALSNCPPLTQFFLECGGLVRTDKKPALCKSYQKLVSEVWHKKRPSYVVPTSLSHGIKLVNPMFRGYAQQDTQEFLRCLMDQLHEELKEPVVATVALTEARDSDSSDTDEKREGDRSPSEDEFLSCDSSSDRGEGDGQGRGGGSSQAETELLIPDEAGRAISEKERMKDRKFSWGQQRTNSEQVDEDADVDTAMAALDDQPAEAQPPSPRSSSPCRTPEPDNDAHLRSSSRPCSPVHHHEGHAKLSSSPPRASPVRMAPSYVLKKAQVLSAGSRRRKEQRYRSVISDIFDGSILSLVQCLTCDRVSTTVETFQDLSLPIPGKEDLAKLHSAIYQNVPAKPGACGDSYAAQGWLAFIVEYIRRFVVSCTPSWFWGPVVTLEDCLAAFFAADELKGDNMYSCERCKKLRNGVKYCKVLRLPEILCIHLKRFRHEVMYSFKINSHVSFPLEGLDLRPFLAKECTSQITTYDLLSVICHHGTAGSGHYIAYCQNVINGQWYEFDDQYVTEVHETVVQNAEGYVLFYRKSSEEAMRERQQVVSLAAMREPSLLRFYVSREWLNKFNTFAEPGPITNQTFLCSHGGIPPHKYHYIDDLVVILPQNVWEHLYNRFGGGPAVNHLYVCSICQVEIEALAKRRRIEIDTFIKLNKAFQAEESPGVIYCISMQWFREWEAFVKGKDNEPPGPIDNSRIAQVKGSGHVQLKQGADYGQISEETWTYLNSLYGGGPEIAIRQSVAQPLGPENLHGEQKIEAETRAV

Compound	target or system	test	system	conditions	how to read	endpoint	value
Nc1ncnc2c1ncn2[C@@H]1O[C@H](COP(=O)(O)OP(=O)(O)O)[C@@H](O)[C@H]1O		binding, equilibrium dialysis LC-MS		5 µM, thermostabilized A2AR-BRIL construct	reference: no-protein control, direction not given	z-scored log2 fold change	-0.584
O=c1cc(-c2ccc(O)cc2)oc2c([C@@H]3OC[C@H](O)[C@H](O)[C@H]3O)c(O)c([C@@H]3O[C@H](CO)[C@@H](O)[C@H](O)[C@H]3O)c(O)c12		UHPLC-MS/MS	C57BL/6J mouse, intestines	oral, dose not given		tissue concentration	0.27 ng/g
CN(C(=O)n1cnc(-c2ccc[n+]([O-])c2)c1)[C@H]1CC[C@H](O)CC1			rat, cerebellum	oral, 10 mg/kg single dose, 1 h		tissue concentration	8.7 ± 0.5 ng/g
CCc1c2c(nc3ccc(OC(=O)N4CCC(N5CCCCC5)CC4)cc13)-c1cc3c(c(=O)n1C2)COC(=O)[C@]3(O)CC			mouse Mrp2(−/−), colon	intraperitoneal, 50 mg/kg, 24 h		tissue concentration	17900 ± 13200 ng/g
N=C(N)NCCC[C@H](NCC(=O)[C@@H](O)[C@H](O)[C@H](O)CO)C(=O)O		UPLC-MS/MS	C57BL/6J mice, striatum	intraperitoneal, dose not given, 15 min		tissue concentration	7 ± 3 pmol/mg tissue
O=C(O)CCc1ccccc1OCc1ccccn1	Ubiquitin carboxyl-terminal hydrolase 20, ZnF-UBD domain (USP20, Homo sapiens, UniProt Q9Y2K6)					Kd	249 µM
NS(=O)(=O)c1nnc(NC(=O)C2CC23CCOCC3)s1 (stereo not shown)	Alpha-carbonic anhydrase (Enterococcus faecium, UniProt Q3XYE8)	CO2 hydration, inhibitor, stopped-flow kinetics				Ki	0.0628 µM
Cc1nc2ccc(OCc3ccc(C(F)(F)F)cc3)cc2[nH]1			Balb/c mouse, male, liver	oral, 10 mg/kg, 72 h		tissue concentration	3 ± 0.8 ng/g
C[C@H](CCC(=O)O)[C@H]1CC[C@H]2[C@@H]3[C@H](O)C[C@@H]4C[C@H](O)CC[C@]4(C)[C@H]3C[C@H](O)[C@]12C		binding, equilibrium dialysis LC-MS		5 µM, thermostabilized A2AR-BRIL construct	reference: no-protein control, direction not given	z-scored log2 fold change	3.98
NC/C(=C\F)COc1cccc(Cn2c(=S)[nH]c(=O)c3[nH]cnc32)c1			C57BL/6J mice, liver	oral, 15 mg/kg single, 2 h		tissue concentration	1740 ng/mL
CN(C(=O)n1cnc(-c2cccnc2)c1)[C@H]1CC[C@H](O)CC1			rat, hippocampus	oral, 10 mg/kg single dose, 1 h		tissue concentration	16.5 ± 1 ng/g
OCc1nc2ccc(NCc3ccc(C(F)(F)F)cc3)cc2[nH]1			Balb/c mice, male, kidney	intravenous, 1 mg/kg, 48 h		tissue concentration	not detected
CSc1cc(C)nc(SC)c1NC(=O)CN1CCN(CCSc2nc3ccccc3[nH]2)CC1.Cl			mouse Crl:CD1 (ICR), female, cerebrum	intranasal, 10 µL of HA solution once daily for 7 days, 120 min after last dose		tissue concentration	2.6 ng/g and 1.5 ng/g

Some of these lines once more:
Compound	target or system	test	system	conditions	how to read	endpoint	value
CN(C(=O)n1cnc(-c2ccc[n+]([O-])c2)c1)[C@H]1CC[C@H](O)CC1			rat, cerebellum	oral, 10 mg/kg single dose, 1 h		tissue concentration	8.7 ± 0.5 ng/g
